Measurements gathered from unrelated publications.
Parts stem from different laboratories: compare values within a part only.
Sequence of UniProt P35348 (whole entry, looked up): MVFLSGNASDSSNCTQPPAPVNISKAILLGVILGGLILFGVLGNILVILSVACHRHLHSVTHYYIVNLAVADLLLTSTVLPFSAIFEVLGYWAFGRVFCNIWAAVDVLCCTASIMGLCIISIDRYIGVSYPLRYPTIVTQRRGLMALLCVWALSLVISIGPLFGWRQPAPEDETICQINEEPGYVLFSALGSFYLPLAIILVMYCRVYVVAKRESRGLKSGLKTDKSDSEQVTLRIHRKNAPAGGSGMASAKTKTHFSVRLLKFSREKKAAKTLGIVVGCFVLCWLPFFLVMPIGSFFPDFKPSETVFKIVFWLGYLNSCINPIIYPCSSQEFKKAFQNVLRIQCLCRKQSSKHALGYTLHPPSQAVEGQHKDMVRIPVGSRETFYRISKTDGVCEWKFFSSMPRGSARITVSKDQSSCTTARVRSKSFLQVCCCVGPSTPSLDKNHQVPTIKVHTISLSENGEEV

Sample 1 — observed: enzyme activity; action: inhibitor; concentration: 0.5 µM; relative to: control; measurement: remaining activity
Target: Serine/threonine-protein kinase Sgk1 (SGK1, Homo sapiens, UniProt O00141)
Target sequence (O00141 1-431): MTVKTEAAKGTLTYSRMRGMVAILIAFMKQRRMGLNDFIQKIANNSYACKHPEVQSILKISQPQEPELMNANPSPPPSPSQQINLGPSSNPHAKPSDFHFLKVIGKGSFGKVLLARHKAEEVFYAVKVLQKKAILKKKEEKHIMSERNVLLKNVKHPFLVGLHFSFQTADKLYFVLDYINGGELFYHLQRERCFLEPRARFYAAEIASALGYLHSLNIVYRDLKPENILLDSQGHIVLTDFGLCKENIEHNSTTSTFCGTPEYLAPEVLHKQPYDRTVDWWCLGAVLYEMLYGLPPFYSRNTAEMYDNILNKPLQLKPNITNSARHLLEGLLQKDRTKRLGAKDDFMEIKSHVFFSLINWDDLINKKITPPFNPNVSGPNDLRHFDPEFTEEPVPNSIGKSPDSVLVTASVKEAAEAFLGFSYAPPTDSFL
SMILES = CC#CC(=O)Nc1cc2c(Nc3ccc(F)c(Cl)c3)ncnc2cn1; value = 95.6%
SMILES = N#CC(=C(N)Sc1ccc(N)cc1)c1ccccc1C(F)(F)F; value = 102%
SMILES = Nc1nc(Nc2ccc(S(N)(=O)=O)cc2)nn1C(=O)c1c(F)cccc1F; value = 93%
SMILES = CCc1[nH]c(-c2ccc(OC)cc2)nc1-c1ccncc1; value = 104%
SMILES = NC(=O)c1ccc(N(C(N)=O)c2c(F)cccc2F)nc1-c1ccc(F)cc1F; value = 121%
SMILES = O=C1NC(=O)C(c2c[nH]c3ccccc23)=C1c1c[nH]c2ccccc12; value = 105%
SMILES = O=S(=O)(NCCNC/C=C/c1ccc(Br)cc1)c1cccc2cnccc12; value = 93.2%
SMILES = Fc1ccc(-c2nc3n(c2-c2ccncc2)CCS3)cc1; value = 100%
SMILES = Cc1cncc2cccc(S(=O)(=O)N3CCCN(C(=O)CN)C[C@@H]3C)c12; value = 102%
SMILES = Nc1ncnc2c1cnn2-c1ccccc1; value = 90.9%
SMILES = CC(=O)c1ccc(N2CCOCC2)cc1O; value = 97.2%
SMILES = CC(C)(C)n1nc(Cc2cccc3ccccc23)c2c(N)ncnc21; value = 102%
SMILES = Cc1ccc(NC2=CC(=O)c3sc(C)nc3C2=O)cc1; value = 114%
SMILES = Oc1ccc(Nc2nc(-c3ccc(Cl)cc3)cs2)cc1; value = 106%
SMILES = COc1cc(Nc2c(C#N)cnc3cc(OCCCN4CCN(C)CC4)c(OC)cc23)c(Cl)cc1Cl; value = 126%
SMILES = CSc1nc(-c2ccnc(N[C@@H](C)c3ccccc3)c2)c(-c2ccc(F)cc2)[nH]1 (racemic); value = 97.3%
SMILES = Nc1nccc(-c2c(-c3ccc(F)cc3)ncn2C2CCNCC2)n1; value = 97.4%
SMILES = Cc1cc(Nc2nc(-c3ccccc3)nc3ccccc23)n[nH]1; value = 95.5%
SMILES = CC[n+]1c(/C=C/N(C)c2ccccc2)n(-c2ccccc2)c2ccc(-c3nc4ccccc4s3)cc21; value = 97.2%
SMILES = CCCC(=O)Oc1ccc2[nH]c(C(=O)c3cc4ccccc4[nH]3)cc2c1; value = 97%
SMILES = COc1ccc(S(=O)(=O)N(CCO)c2ccccc2CN(C)CC=Cc2ccc(Cl)cc2)cc1; value = 103%
SMILES = O=C1Cc2c([nH]c3ccc([N+](=O)[O-])cc23)-c2ccccc2N1; value = 96%

Sample 2 — medium: plasma; route: oral; setting: single dose; measurement: plasma concentration, mean
SMILES: COc1ccc(-c2c(Nc3ccccn3)[nH]c3c(C4=CCCCC4)c(-c4ccccc4)nn3c2=O)cc1
system = cancer patients; conditions = 400 mg, 6 h post-dose; value = 1310 ng/mL
system = cancer patients; conditions = 100 mg, 72 h post-dose; value = 253 ng/mL
system = cancer patients; conditions = 200 mg, 8 h post-dose; value = 1410 ng/mL
system = cancer patients; conditions = 50 mg, 0.5 h post-dose; value = 91.5 ng/mL
test = LC-MS/MS; system = human; conditions = 200 mg twice daily, 0 h; value = 0 ng/mL
system = cancer patients; conditions = 400 mg, 8 h post-dose; value = 1160 ng/mL
system = cancer patients; conditions = 400 mg, 4 h post-dose; value = 1360 ng/mL
system = cancer patients; conditions = 400 mg, 48 h post-dose; value = 265 ng/mL

Sample 3 — species: mouse; medium: microsomes or S9; concentration: 2 µM; time: 0.5 h; measurement: remaining compound
SMILES = Cc1cc(Br)ccc1NC(=O)C(NS(=O)(=O)c1cccs1)c1ccccc1 (centres unmarked); value = 8.63%
SMILES = CCOc1cc(=O)n2c(c1C(=O)Nc1ccc(C)cc1Cl)CCCC2; value = 0.0735%
SMILES = CS(=O)(=O)NCC1CCC(C(=O)NCC2CCS(=O)(=O)C2)CC1 (centres unmarked); value = 83.5%
SMILES = COc1cc(=O)n2c(c1C(=O)Nc1cccc3c1CCCC3)CCCC2; value = 41.2%
SMILES = CN(C)c1nc2n(c(=O)n1)CCN2C(=O)Nc1ccccc1; value = 20.5%
SMILES = O=C(Cc1cnc[nH]c1=O)N[C@@H]1CCCC[C@H]1c1ccccc1; value = 95.9%
SMILES = Cn1c(CN2CCc3ccccc3C2)cc(=O)c(O)c1CN1CCOC(c2ccccc2)C1 (centres unmarked); value = 37.9%
SMILES = CC(=O)Nc1cc(O)nc2nc(-c3ccc(C(C)(C)C)cc3)nn12; value = 53%
SMILES = OC1(CN2CCC(c3nnc4ccccn34)CC2)CCNC1 (centres unmarked); value = 60.6%
SMILES = Cc1cc(C)c2c(c1)C(Nc1ncc(S(N)(=O)=O)s1)CCO2 (centres unmarked); value = 53.5%
SMILES = CCc1nc(NCCc2ccncc2)c2c3c(sc2n1)CCCC3; value = 0.738%
SMILES = CCCNC(=O)c1cn(-c2cc(-c3nc(C(C)(C)C)no3)ccn2)cn1; value = 56%
SMILES = Cc1nn(C)c2ncnc(N3CC(C)(C)N(C)C[C@@H]3C)c12; value = 52.3%
SMILES = Cc1ccc(NC(=O)C(Cc2cccc(C)c2)c2nnn[nH]2)cc1 (centres unmarked); value = 71%

Further values, each from its own experiment
Structure (SMILES) = C[C@@H]1CN(c2cc(-c3n[nH]c4ccc(OC5(C)CC5)cc34)ncn2)C[C@H](C)O1; target or system = U2OS, HEK293T, MRC-9; test = high-content imaging; conditions = concentration not given, 24 h, recommended concentration, one cell line; measurement = increased mitochondrial mass; value = > 50%
Structure (SMILES) = C[C@H](c1cccc(C#N)c1)n1cc(Cl)cc(C(N)=O)c1=N; target or system = Alpha-1A adrenergic receptor (ADRA1A, Homo sapiens, UniProt P35348); test = binder, radioligand binding; measurement = Ki; value = 6.77 nM
Structure (SMILES) = Cn1cncc1[C@@](O)(COc1ccc(C#N)cc1-c1ccc(OC(F)(F)F)cc1)c1ccc(C#N)cc1; target or system = HEK293T; test = high-content imaging; conditions = 10 µM, 24 h; measurement = normal cells; value = 94.3%

Excerpt of the above (sample 1):
SMILES = Cc1cncc2cccc(S(=O)(=O)N3CCCN(C(=O)CN)C[C@@H]3C)c12; value = 102%
SMILES = CSc1nc(-c2ccnc(N[C@@H](C)c3ccccc3)c2)c(-c2ccc(F)cc2)[nH]1 (racemic); value = 97.3%
SMILES = CC(C)(C)n1nc(Cc2cccc3ccccc23)c2c(N)ncnc21; value = 102%
SMILES = Nc1nc(Nc2ccc(S(N)(=O)=O)cc2)nn1C(=O)c1c(F)cccc1F; value = 93%
SMILES = Fc1ccc(-c2nc3n(c2-c2ccncc2)CCS3)cc1; value = 100%
SMILES = CC[n+]1c(/C=C/N(C)c2ccccc2)n(-c2ccccc2)c2ccc(-c3nc4ccccc4s3)cc21; value = 97.2%
